# Published values gathered from unrelated publications.
# Each line is one published result; not all experiments were run side by side. Numbers after ± are the reported error.
SMILES,host,sample,route,dose,time,notes,Cmax
N=C(N)NCCC[C@@H]1NC(=O)[C@H](Cc2c[nH]c3ccccc23)NC(=O)[C@@H](CC2CCCCC2)NC(=O)[C@@H]2CCCN2C(=O)[C@@H](NC(=O)CCc2ccccc2)CCCNC1=O,C57BL/6J mice,brain,oral,1 mg/kg,,,154 ng/g
CN1CCN(c2cc(-c3ccccc3CO)c(N(C)C(=O)C(C)(C)c3cc(C(F)(F)F)cc(C(F)(F)F)c3)cn2)CC1,healthy volunteers,plasma,oral,dose not given,,netupitant-palonosetron fixed-dose combination,60.1 ng/mL
C[Si]1(C[C@H](CN)CC(=O)O)CCCC1,male Sprague-Dawley rat,plasma,oral,30 mg/kg,,single dose,39.6 µM
N#Cc1cnc2cc(OCC3CCNCC3)c(F)cc2c1Nc1cc(F)c(OCc2cccc(Cl)n2)cc1Cl,male Sprague-Dawley rat,plasma,oral,30 mg/kg,,,256 ng/mL
CCc1c2c(nc3ccc(O)cc13)-c1cc3c(c(=O)n1C2)COC(=O)[C@]3(O)CC,human patients,plasma,intravenous,75 mg/m^2 of parent drug,,,227 ng/mL
C[Si](C)(C)C[C@H](CN)CC(=O)O,male Sprague-Dawley rat,plasma,oral,30 mg/kg,,single dose,125 µM
CC1=C(/C=C/C(=O)N2CCN(C(N)=O)CC2)C(C)(C)CCC1,male mice,plasma,oral,20 mg/kg,,,4.69 nmol/g
CSCOC1C(=O)C2(C)C(OCSC)CC3OCC3(OC(C)=O)C2C(OC(=O)c2ccccc2)C2(O)CC(OC(=O)C(O)C(C=C(C)C)NC(=O)OC(C)(C)C)C(C)=C1C2(C)C (stereo not drawn),female Sprague-Dawley rat,plasma,intravenous,4 mg/kg,,,1390 ng/mL
CC(C)(Sc1ccncc1-c1ccc(C#N)c2ccccc12)C(=O)OC1OC(C(=O)O)C(O)C(O)C1O (stereo not drawn),,plasma,oral,15 mg,,"mild renal impairment, fasted",33.3 ng/mL
CC(C)(C)ONc1nc(Nc2ccnc(C(F)(F)F)c2)nc(-c2cccc(C(F)(F)F)n2)n1,female Balb/cA nude mice xenograft,tumour,oral,18.05 mg/kg,,,10100 ng/g
Cc1ccc(OCC(=O)N(Cc2cccs2)c2ccn[nH]2)cc1,female Sprague-Dawley rat,plasma,oral,30 mg/kg,,single dose,33.1 ng/mL
COc1cc(C)c(Cc2ccc(O)cc2)cc1[C@@H]1S[C@H](CO)[C@@H](O)[C@H](O)[C@H]1O,Japanese T2DM patients,plasma,,2.5 mg luseogliflozin,day 1,once daily,4.13 ± 0.554 ng/mL
O=C(O)/C=C/c1cccc(S(=O)(=O)Nc2ccccc2)c1,patients with severe liver dysfunction,plasma,intravenous,400 mg/m^2 belinostat,,"single 30 min infusion, cycle 1 day -7, mean",2240 ng/mL
Cn1c(=O)oc2ccc(-c3ccc(CC(C#N)NC(=O)C4CNCCCO4)c(F)c3)cc21 (stereo not drawn),human volunteers,plasma,,60 mg single dose,,"fasted, geometric mean",435 ng/mL
CC=C1C(OC2OC(CO)C(O)C(O)C2O)OC=C(C(=O)OC)C1CC(=O)OCC1OC(OCCc2ccc(O)cc2)C(O)C(O)C1O (stereo not drawn),pseudo-germfree tumour-bearing Balb/c mice,plasma,oral,109.2 mg/kg,,,2440 ng/mL

# Some of these lines once more:
SMILES,host,sample,route,dose,time,notes,Cmax
CN1CCN(c2cc(-c3ccccc3CO)c(N(C)C(=O)C(C)(C)c3cc(C(F)(F)F)cc(C(F)(F)F)c3)cn2)CC1,healthy volunteers,plasma,oral,dose not given,,netupitant-palonosetron fixed-dose combination,60.1 ng/mL
O=C(O)/C=C/c1cccc(S(=O)(=O)Nc2ccccc2)c1,patients with severe liver dysfunction,plasma,intravenous,400 mg/m^2 belinostat,,"single 30 min infusion, cycle 1 day -7, mean",2240 ng/mL
